Experimental data from different studies.
Numbered parts are unrelated; each lists some results of a single study. Substitutions count along the parent as printed.
Sequence of UniProt P28223 (whole entry, looked up): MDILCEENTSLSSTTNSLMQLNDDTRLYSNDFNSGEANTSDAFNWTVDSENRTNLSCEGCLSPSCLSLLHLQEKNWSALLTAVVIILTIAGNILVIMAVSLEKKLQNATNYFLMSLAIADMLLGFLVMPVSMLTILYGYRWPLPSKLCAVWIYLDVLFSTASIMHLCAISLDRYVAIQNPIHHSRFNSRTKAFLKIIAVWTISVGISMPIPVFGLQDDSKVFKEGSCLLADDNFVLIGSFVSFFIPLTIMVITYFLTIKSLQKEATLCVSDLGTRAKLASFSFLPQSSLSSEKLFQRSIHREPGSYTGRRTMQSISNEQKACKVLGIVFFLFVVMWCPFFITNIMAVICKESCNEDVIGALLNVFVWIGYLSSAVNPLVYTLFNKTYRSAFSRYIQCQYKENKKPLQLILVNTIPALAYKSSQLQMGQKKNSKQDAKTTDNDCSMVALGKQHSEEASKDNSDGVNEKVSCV

Series 1
Target: Sal-like protein 4, full length isoform B (SALL4, Homo sapiens, UniProt Q9UJQ4-2, residues 1-616)
Method: universal PBM
Molecule type: double-stranded DNA, one strand shown
Matrix: in vitro
Tested at: not given
Setting: 8-mer, flanks averaged, mean of replicates
Direction: higher = stronger binding
Oligonucleotide | E-score
AATTCCCT | 0.0921
GCAGCCCC | -0.289
TCGCGCAA | 0.0782
ACGCATTC | -0.0717
ACACCGCC | -0.169
CTGACTTC | -0.241
AATGAAAC | 0.178
GGAATTAA | 0.231

Series 2
Target: CCNF, cyclin fold, Cln2 fusion (human)
Method: yeast growth competition, sequencing
Matrix: yeast
Setting: strong parent motif
Reference: not given
Direction: higher = stronger binding
Starting sequence: viral docking peptide; YKVKRRLVFGADD
Substitution | normalised enrichment score
K4L | 7.37
K2L | 8.73
V3S | 8.38

Series 3
Target: Centromere-binding protein 1, full length, N-terminal tag (CBF1, Saccharomyces cerevisiae, UniProt P17106, residues 1-351)
Sequence of UniProt P17106 (whole entry, looked up): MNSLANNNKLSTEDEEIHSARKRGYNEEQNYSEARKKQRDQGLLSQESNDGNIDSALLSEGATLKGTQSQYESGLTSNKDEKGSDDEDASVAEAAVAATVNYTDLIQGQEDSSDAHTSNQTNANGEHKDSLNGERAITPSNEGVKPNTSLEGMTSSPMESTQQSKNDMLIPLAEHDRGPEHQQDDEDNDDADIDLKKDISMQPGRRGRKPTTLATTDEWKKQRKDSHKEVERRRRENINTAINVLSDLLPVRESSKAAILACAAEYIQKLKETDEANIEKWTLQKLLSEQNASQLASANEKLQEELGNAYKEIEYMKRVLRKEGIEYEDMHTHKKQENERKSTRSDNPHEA
Method: protein-binding microarray
Molecule type: double-stranded DNA, one strand shown
Matrix: in vitro
Tested at: 0.8 µM
Setting: whole 60-bp probe, no competitor
Direction: higher = stronger binding
Shared flanks, not repeated: … GTCTTGATTCGCTTGACGCTGCTG
Oligonucleotide | fluorescence intensity [a.u.]
CTAATTCCTGTCGACTGCCTGATGTCAGTATTGTTC | 536
CTACAGAAAATTTCAGGTGAGATAAGGTGCGGCTTC | 491
GAAGTCATTGATAACAGCGTGACTCTTCCCGGATAG | 957
GAAACGCAAAGCAATCTATTTCTTCTTTTGGCCTAG | 488
TGTACGAAGCTATATCACCACTCTATAGTAGTTAGG | 506
GAACACAAAAAATGTCACCCATCATTATATGTATAG | 547
CTAGTGCGTTATGCTTCCATGTGACCCAACATCTTC | 3470
CTATTATGTCTGACCCACGTATTATGTGGAGCATTC | 533

Other studies, line by line
Molecule | target | test | system | setting | how to read | measurement | result
COc1nc2ccc([C@@](O)(c3ccccc3)C3CCN(C(C)=O)CC3)cc2c(Cl)c1Cc1ccc(-n2cccn2)cc1 | HTR2A (Homo sapiens, UniProt P28223) | binding, radioligand binding | – | 10 µM | – | inhibition | 6.87%
FSDLCNFLI | HLA class I histocompatibility antigen, A alpha chain, allele A*80:01 (Homo sapiens, UniProt P04439) | peptide-MHC binding | peptide | – | direction not given | z-score of log IC50 | 0.38

Some of these lines once more (series 1):
Oligonucleotide | E-score
AATTCCCT | 0.0921
TCGCGCAA | 0.0782
AATGAAAC | 0.178
